Published values of several laboratories.
Compare with care: the assays were run in different laboratories.
RPS6KA6: Ribosomal protein S6 kinase alpha-6 (RPS6KA6, Homo sapiens, UniProt Q9UK32)
RPS6KA6 C-terminal kinase domain: Ribosomal protein S6 kinase alpha-6, C-terminal kinase domain (RPS6KA6, Homo sapiens, UniProt Q9UK32)
RPS6KA6 N-terminal kinase domain: Ribosomal protein S6 kinase alpha-6, N-terminal kinase domain (RPS6KA6, Homo sapiens, UniProt Q9UK32)

| SMILES | target | assay | conditions | how to read | endpoint | value |
| --- | --- | --- | --- | --- | --- | --- |
| COc1ccc(NC(=O)Nc2ccc3c(c2)C(=O)N(C(C)CO)CC(C)C(CN(C)Cc2ccc4c(c2)OCO4)O3)cc1 (stereo not drawn) | RPS6KA6 | kinase activity, KinaseProfiler | 0.03 µM, species human | baseline: control | remaining activity | 90% |
| NC(=O)C[C@H]1CCc2sc3ncnc(O[C@H]4CC[C@H](N5CCOCC5)CC4)c3c21 | RPS6KA6 | enzyme activity, inhibitor | 10 µM | – | inhibition | 13% |
| C=CC(=O)N1Cc2nc(-c3cc(-c4cc(Cl)cnc4Cl)c(F)cc3F)n(-c3ccncn3)c2C1 | RPS6KA6 | cell-free assay, inhibitor | 1 µM | – | inhibition | 2.8% |
| COc1c(Cl)cccc1Nc1c(-c2ccncc2C#C[C@@]2(C)CCCN2C(=O)/C=C/CN(C)C)[nH]c2c1C(=O)NCC2 | RPS6KA6 C-terminal kinase domain | binding, competition with immobilised ligand | 3 µM | – | remaining binding | 23% |
| CNC(=O)C[C@H](Cc1ccc(C#N)cc1)NC(=O)c1cc(-c2ccc(CN[C@H](C)c3ccc(C)cc3)o2)ccc1Cl | RPS6KA6 | enzyme activity, inhibitor | 1 µM | – | activity vs control | 59% |
| CCN1CCN(Cc2ccc(C(=O)Nc3ccc(C)c(NCc4cnc5[nH]ccc5c4OC)c3)cc2C(F)(F)F)CC1 | RPS6KA6 C-terminal kinase domain | binding, competition with immobilised ligand | 1 µM | – | remaining binding | 69% |
| CNC(=O)C1CCN(c2cc(C)c(F)cc2NC(=O)c2ccc(-c3cc(O)ccc3C)c(C)c2)CC1 | RPS6KA6 N-terminal kinase domain | binding, competition with immobilised ligand | 1 µM | – | remaining binding | 100% |
| CNC1C[S+]2CC[S+]3CC[S+](C1)[Ru-4]321([N]=C=S)[n]2c3ccc(OC)cc3c3c4c(c5cc(F)c[n+]1c5c32)C(=O)NC4=O (stereo not drawn) | RPS6KA6 N-terminal kinase domain | KinomeScan | 0.1 µM | baseline: untreated | remaining binding | 20% |
| Cc1cnc2nc1Nc1cccc(c1)COC/C=C/COCc1cc(ccc1OCCN1CCOCC1)N2 | RPS6KA6 N-terminal kinase domain | cell-free assay | 0.1 µM | – | remaining signal | 78% |
| O=C=[N][Ru-4]123([n]4c5ccc(O)cc5c5c6c(c7cc(F)c[n+]1c7c54)C(=O)NC6=O)[S+]1CC[S+]2CC[S+]3CC1 (stereo not drawn) | RPS6KA6 | enzyme activity | 100 nM, human enzyme, with: 10 µM ATP | baseline: untreated | remaining activity | 22% |
| C=CC(=O)N1CCc2ccc(-n3c(=O)ccc4cnc5ccc(-c6cnn(C)c6)cc5c43)cc21 | RPS6KA6 C-terminal kinase domain | KINOMEscan | 1 µM | baseline: DMSO control | remaining binding | 66% |
| Cc1c[nH]c2nccc(-c3ccc(C(=O)N[C@@H]4c5c(F)cc(C(F)F)cc5C[C@@H]4O)cn3)c12 | RPS6KA6 N-terminal kinase domain | binding, competition with immobilised ligand | 3 µM | – | remaining binding | 7.4% |
| CC(C)=CC1OC(C)(C)C2C=C3C(=O)C(Cl)=CC(O)C3C3C(O)C4OC4C(=O)C132 (stereo not drawn) | RPS6KA6 N-terminal kinase domain | cell-free assay, competition with immobilised ligand | 10 µM | – | remaining binding | 49% |
| Cc1cccc(O[C@H]2CCC[C@@H](C(C)CNCc3ccncc3)C2)c1 (relative stereo) | RPS6KA6 | kinase activity, kinome panel screening | 10 µM | – | inhibition | -3% |
| COc1cc(Nc2nccc(-c3cnn4nc(OC)ccc34)n2)cc(C(F)(F)F)c1 | RPS6KA6 C-terminal kinase domain | binding, competition with immobilised ligand | 1 µM | – | remaining binding | 100% |
| Cc1ccc(-c2c(/C=C(\C#N)C(=O)NC(C)C)n(CCCO)c3ncnc(N)c23)cc1 | RPS6KA6 N-terminal kinase domain | binding, competition with immobilised ligand | 1 µM | – | remaining binding | 93% |
| C=CC(=O)Nc1cccc(-c2cnc3[nH]cc(C(=O)NC(C)(C)C)c3n2)c1 | RPS6KA6 | enzyme activity, inhibitor | 0.1 µM | – | inhibition | 20% |
| Nc1ncc2c(n1)-c1c([nH]c3ccc(C4=CCOCC4)cc13)CCC2 | RPS6KA6 C-terminal kinase domain | binding, competition with immobilised ligand | 1 µM | – | remaining binding | 100% |
| C=CC(=O)N1CCCC(n2c(=O)c3ncccc3n(Cc3ccc(Oc4ccccc4)cc3)c2=O)C1 (stereo not drawn) | RPS6KA6 C-terminal kinase domain | binding, competition with immobilised ligand | 1 µM | – | remaining binding | 88% |
| COc1cc(Nc2nc(C)cc(-c3cnn4nc(OC)ccc34)n2)cc(C(F)(F)F)c1 | RPS6KA6 C-terminal kinase domain | binding, competition with immobilised ligand | 1 µM | – | remaining binding | 82% |
| O=C(Cc1ccc(OCc2ccccc2)cc1)NC1(C(=O)O)CCN(C(=O)c2ccc(-c3cccc(Cl)c3)cc2)CC1 | RPS6KA6 | enzyme activity, inhibitor | 10 µM | – | activity vs control | 100% |
